# Experimental data from different studies.
# “And” joins repeats or separate records; there may be more than shown. ± gives the spread as reported.
SMILES,organism,test,test system,setting,how to read,quantity,result
COC(=O)c1cnc(-c2cnccn2)cc1C(=O)OC.COC(=O)c1cnc(-c2cnccn2)cc1C(=O)OC.F[P-](F)(F)(F)(F)F.[Ag+],Chromobacterium violaceum,violacein production (quorum sensing),CV026,100 µg/disc,,inhibition zone diameter,5 mm
CC[C@H](C)[C@H](NC(=O)[C@H](CCCCN)NC(=O)[C@H](CCCCN)NC(=O)[C@H](CC(C)C)NC(=O)[C@H](CCCCN)NC(=O)[C@H](CCC(=O)O)NC(=O)[C@H](CCCCN)NC(=O)[C@@H](NC(=O)[C@H](CCCCN)NC(=O)[C@H](CC(N)=O)NC(=O)[C@H](CCCNC(=N)N)NC(=O)[C@H](Cc1ccccc1)NC(=O)[C@H](CCCCN)NC(=O)[C@H](CCCNC(=N)N)NC(=O)[C@H](CC(C)C)NC(=O)[C@H](CCCNC(=N)N)NC(=O)[C@H](CCCCN)NC(=O)[C@H](CCCNC(=N)N)NC(=O)[C@@H](N)CC(C)C)[C@@H](C)CC)C(=O)NCC(=O)N[C@@H](CCC(N)=O)C(=O)N[C@@H](CCCCN)C(=O)N[C@H](C(=O)N[C@@H](CCC(N)=O)C(=O)NCC(=O)N[C@@H](Cc1ccccc1)C(=O)N[C@H](C(=O)N1CCC[C@H]1C(=O)N[C@@H](CCCCN)C(=O)N[C@@H](CC(C)C)C(=O)O)C(C)C)[C@@H](C)CC,Bacillus subtilis,inhibition zone,CGMCC 1.243,,,lethal concentration,1.45 µM
CC(C)C[C@H](NC(=O)[C@H](CC(=O)O)NC(=O)[C@H](CC(C)C)NC(=O)[C@H](CC(=O)O)NC(=O)CNC(=O)[C@@H]1CCCN1C(=O)[C@H](CCCCN)NC(=O)[C@H](CC(C)C)NC(=O)[C@H](Cc1c[nH]c2ccccc12)NC(=O)[C@@H]1CCCN1)C(=O)O,dengue virus 2,,"LLC-MK2, New Guinea C","maximal non-toxic, 24 h",baseline: untreated,E protein reduction,59.1 ± 11.2%
Nc1ccn(C[C@@H](CO)OCP(=O)(O)OCCCS(=O)(=O)CCCCCCCCCCCCC2CCC2)c(=O)n1,human adenovirus 5,cytopathic effect,Adenoid 75,,baseline: CC50 over EC50,selectivity index,84
N=C(N)NCCC[C@H](NC(=O)[C@H](Cc1c[nH]c2ccccc12)NC(=O)[C@H](CCCNC(=N)N)NC(=O)[C@H](CCCNC(=N)N)NC(=O)[C@@H]1CCCN1C(=O)[C@H](CCCCN)NC(=O)[C@@H](N)CCCNC(=N)N)C(=O)N[C@@H](Cc1c[nH]c2ccccc12)C(=O)N[C@@H](Cc1c[nH]c2ccccc12)C(=O)N1CCC[C@H]1C(=O)N[C@@H](CCCCN)C(=O)N[C@@H](CCCNC(=N)N)C(=O)N1CCC[C@H]1C(=O)O,Staphylococcus aureus,"ELISA, item: IL-1β","09057, BALB/c mice, sepsis model","intraperitoneal, 20 mg/kg, 12 h",baseline: saline,serum cytokine level,decreased
C[C@@](O)(C(F)F)[C@H](NC(=O)c1ccc(C#CC#CC2CC2)cc1)C(=O)NO,Neisseria gonorrhoeae,agar dilution,susceptible and MDR,,,MIC50,0.016 µg/mL
CC[C@H](C)[C@H](NC(=O)[C@H](Cc1ccc(O)cc1)NC(=O)[C@H](CCCCN)NC(=O)[C@H](CCCCN)NC(=O)[C@H](CCC(N)=O)NC(=O)[C@H](C)N)C(=O)N[C@@H](CO)C(=O)N[C@@H](Cc1ccc(O)cc1)C(=O)NCC(=O)N[C@@H](C)C(=O)N[C@@H](CCSC)C(=O)N[C@@H](CCCNC(=N)N)C(=O)N[C@@H](CCCNC(=N)N)C(=O)N[C@@H](CC(N)=O)C(=O)N[C@@H](CO)C(=O)N[C@H](C(=O)N1CCC[C@H]1C(=O)N[C@H]1CSSC[C@@H](C(=O)N[C@@H](CCC(N)=O)C(=O)N[C@@H](CCCNC(=N)N)C(=O)NCC(=O)N[C@@H](C)C(=O)N[C@@H](CCC(N)=O)C(=O)N[C@@H](C)C(=O)N[C@@H](CC(N)=O)C(=O)N2CCC[C@H]2C(=O)N[C@@H](Cc2ccc(O)cc2)C(=O)N[C@@H](CO)C(=O)N[C@@H](CCCNC(=N)N)C(=O)NCC(=O)N[C@H]2CSSC[C@@H](C(=O)N[C@@H](CCCNC(=N)N)C(=O)N[C@@H](CCCNC(=N)N)C(=O)O)NC(=O)[C@H](CCCNC(=N)N)NC(=O)[C@H]([C@@H](C)O)NC(=O)[C@H]([C@@H](C)CC)NC(=O)[C@H]([C@@H](C)O)NC(=O)[C@H](CO)NC2=O)NC(=O)[C@H](CC(N)=O)NC(=O)[C@H](Cc2ccc(O)cc2)NC(=O)[C@H](Cc2ccc(O)cc2)NC(=O)[C@H](CO)NC(=O)[C@H](C)NC(=O)CNC(=O)[C@H](CCCNC(=N)N)NC(=O)[C@H](CCCNC(=N)N)NC(=O)[C@H](CO)NC1=O)C(C)C,Arabidopsis thaliana,FITC/TRITC ratio imaging,"fer-4, root hairs",5 µM,,extracellular pH increase,0.48
CC(C)C(C(=O)N[C@@H](Cc1ccccc1)[C@H](O)CN1CCN(Cc2ccc(Br)cc2)CC1)N1C(=O)c2ccccc2C1=O (stereo partly drawn),Plasmodium berghei,,"mice, liver-stage infection","50 mg/kg, 240 h",,mean survival time,~16.5 days
CCOC(=O)/C=C/[C@H](C[C@@H]1CCNC1=O)NC(=O)[C@@H]1[C@@H]2[C@H](CN1C(=O)[C@@H](NC(=O)C(F)(F)F)C(C)(C)C)C2(C)C,Human coronavirus 229E,viral replication,MRC5,,baseline: compound over nirmatrelvir,EC50 ratio,6 fold
CCCCc1ccc(-c2nc(C)c(C(C)=NNC(=N)N)s2)cc1,Staphylococcus aureus,,NRS107 MRSA,,,MBC,2.6 µg/mL
CC[C@@H](C)[C@@H](NC(=O)[C@@H](C)NC(=O)[C@@H](CCCCN)NC(=O)[C@@H](CC(C)C)NC(=O)[C@@H](C)NC(=O)[C@H](NC(=O)[C@@H](Cc1c[nH]cn1)NC(=O)[C@@H](CC(C)C)NC(=O)[C@H](NC(=O)[C@H](NC(=O)[C@@H](CCCCN)NC(=O)[C@@H](CCCCN)NC(=O)[C@@H](C)NC(=O)[C@@H](CO)NC(=O)[C@@H](CCCCN)NC(=O)[C@@H](Cc1ccccc1)NC(=O)[C@H](NC(=O)[C@@H](CCCCN)NC(=O)[C@@H](CC(C)C)NC(=O)[C@@H](Cc1ccccc1)NC(=O)[C@@H](CO)NC(=O)[C@@H](CCCCN)NC(=O)[C@@H](Cc1c[nH]c2ccccc12)NC(=O)[C@@H](CCCCN)NC(C)=O)[C@H](C)O)[C@H](C)O)C(C)C)[C@H](C)O)C(=O)N[C@H](CO)C(=O)N[C@H](CO)C(N)=O,Aspergillus nidulans,,AZN 2867,"48 h, 30 °C",,MIC90,50 µg/mL
O=C(NC1CCCCC1)c1nc(Cl)c2cccnc2c1O,Human betaherpesvirus 5,"viral replication, inhibitor",HFF,10 µM,,inhibition,5.9%
CC[C@H](C)[C@H](NC(=O)[C@H](CCCCN)NC(=O)[C@H](CCCCN)NC(=O)[C@H](CC(C)C)NC(=O)[C@H](CCCCN)NC(=O)[C@H](CCC(=O)O)NC(=O)[C@H](CCCCN)NC(=O)[C@@H](NC(=O)[C@H](CCCCN)NC(=O)[C@H](CC(N)=O)NC(=O)[C@H](CCCNC(=N)N)NC(=O)[C@H](Cc1ccccc1)NC(=O)[C@H](CCCCN)NC(=O)[C@H](CCCNC(=N)N)NC(=O)[C@H](CC(C)C)NC(=O)[C@H](CCCNC(=N)N)NC(=O)[C@H](CCCCN)NC(=O)[C@H](CCCNC(=N)N)NC(=O)[C@H](CC(C)C)NC(=O)CN)[C@@H](C)CC)C(=O)NCC(=O)N[C@@H](CCC(N)=O)C(=O)N[C@@H](CCCCN)C(=O)N[C@H](C(=O)N[C@@H](CCC(N)=O)C(=O)NCC(=O)N[C@@H](Cc1ccccc1)C(=O)N[C@H](C(=O)N1CCC[C@H]1C(=O)N[C@@H](CCCCN)C(=O)N[C@@H](CC(C)C)C(=O)N[C@@H](C)C(=O)N1CCC[C@H]1C(=O)N[C@@H](CCCNC(=N)N)C(=O)N[C@H](C(=O)N[C@@H](CC(=O)O)C(=O)N[C@@H](Cc1ccc(O)cc1)C(=O)O)[C@@H](C)O)C(C)C)[C@@H](C)CC,Salmonella,inhibition zone,ZQ.17N,"LB agar, overnight",,lethal concentration,1.67 µM
COC1=CC(c2ccc[nH]2)=NC1=CNC1CCCCC1,Plasmodium falciparum,,"HepG2, D6",,baseline: HepG2 IC50 over D6 IC50,selectivity index,306
CN[C@@H]1[C@H](O)[C@H](NC)[C@H]2O[C@]3(O)[C@H](O[C@@H]2[C@H]1O)O[C@H](C)C[C@@]3(O)CNCc1ccc(F)cc1,Neisseria gonorrhoeae,,ATCC 49226,40 µg per disc,,inhibition zone diameter,16 to 19 mm
OC(CN1CCC2(CC1)CC(O)c1ccc3ccccc3c1O2)c1ccc(F)c(F)c1 (stereo not drawn),Plasmodium berghei,,"ANKA, BALB/c mice","oral, dose not given",baseline: control,survival prolongation,> 1.7 fold
COc1ccc(C2=[N+]([O-])c3ccccc3N3CCN=C23)cc1,Eggerthella lenta,microbial growth,ATCC43055,,,MIC,≤ 0.06 µg/mL
CN(C)CCNC(=O)/C=C/C(Cc1ccccc1)Nc1ccnc2cc(Cl)ccc12 (stereo not drawn),Plasmodium berghei,,"NAT atovaquone-resistant, ICR mouse infected","10 mg/kg, 2 days post infection",,body weight,26.6 ± 1.43 g
CC[C@H](C)[C@H](NC(=O)[C@H](CO)NC(=O)[C@H](CO)NC(=O)[C@H](Cc1ccccc1)NC(=O)CN)C(=O)N[C@@H](Cc1ccccc1)C(=O)N[C@@H](CCCNC(=N)N)C(N)=O,Escherichia coli,,ATCC 8739,with: 8 mM ZnCl2,,MBC,> 128 µM
CN[C@@H]1[C@H](O)[C@H](NC)[C@H]2O[C@]3(O)[C@H](O[C@@H]2[C@H]1O)O[C@H](C)C[C@@]3(O)CNCc1ccc(OC(F)(F)F)cc1,Haemophilus influenzae,,ATCC 49247,40 µg per disc,,inhibition zone diameter,19 mm and 16 mm
CC[C@H](C)[C@H](NC(=O)[C@H](CCCCN)NC(=O)[C@H](CCCCN)NC(=O)[C@H](CC(C)C)NC(=O)[C@H](CCCCN)NC(=O)[C@H](CCC(=O)O)NC(=O)[C@H](CCCCN)NC(=O)[C@@H](NC(=O)[C@H](CCCCN)NC(=O)[C@H](CC(N)=O)NC(=O)[C@H](CCCNC(=N)N)NC(=O)[C@H](Cc1ccccc1)NC(=O)[C@H](CCCCN)NC(=O)[C@H](CCCNC(=N)N)NC(=O)[C@H](CC(C)C)NC(=O)[C@H](CCCNC(=N)N)NC(=O)[C@H](CCCCN)NC(=O)[C@H](CCCNC(=N)N)NC(=O)[C@H](CC(C)C)NC(=O)[C@@H](N)CC(C)C)[C@@H](C)CC)C(=O)NCC(=O)N[C@@H](CCC(N)=O)C(=O)N[C@@H](CCCCN)C(=O)N[C@H](C(=O)N[C@@H](CCC(N)=O)C(=O)NCC(=O)N[C@@H](Cc1ccccc1)C(=O)N[C@H](C(=O)N1CCC[C@H]1C(=O)N[C@@H](CCCCN)C(=O)N[C@@H](CC(C)C)C(=O)N[C@H](C(=O)N1CCC[C@H]1C(=O)N[C@@H](CCCNC(=N)N)C(=O)N[C@H](C(=O)N[C@@H](CCC(=O)O)C(=O)N[C@@H](CO)C(=O)O)[C@@H](C)O)C(C)C)C(C)C)[C@@H](C)CC,Bacillus megaterium,inhibition zone,CGMCC 1.046,,,lethal concentration,1.64 µM

# Excerpt of the above:
SMILES,organism,test,test system,setting,how to read,quantity,result
CC[C@@H](C)[C@@H](NC(=O)[C@@H](C)NC(=O)[C@@H](CCCCN)NC(=O)[C@@H](CC(C)C)NC(=O)[C@@H](C)NC(=O)[C@H](NC(=O)[C@@H](Cc1c[nH]cn1)NC(=O)[C@@H](CC(C)C)NC(=O)[C@H](NC(=O)[C@H](NC(=O)[C@@H](CCCCN)NC(=O)[C@@H](CCCCN)NC(=O)[C@@H](C)NC(=O)[C@@H](CO)NC(=O)[C@@H](CCCCN)NC(=O)[C@@H](Cc1ccccc1)NC(=O)[C@H](NC(=O)[C@@H](CCCCN)NC(=O)[C@@H](CC(C)C)NC(=O)[C@@H](Cc1ccccc1)NC(=O)[C@@H](CO)NC(=O)[C@@H](CCCCN)NC(=O)[C@@H](Cc1c[nH]c2ccccc12)NC(=O)[C@@H](CCCCN)NC(C)=O)[C@H](C)O)[C@H](C)O)C(C)C)[C@H](C)O)C(=O)N[C@H](CO)C(=O)N[C@H](CO)C(N)=O,Aspergillus nidulans,,AZN 2867,"48 h, 30 °C",,MIC90,50 µg/mL
